Results collected from several papers.
Compare with care: the assays were run in different laboratories. ± marks the error that the study gave.

Structure (SMILES) = COc1ccnc(C[S+]([O-])c2nc3ccc(OC(F)F)cc3[nH]2)c1OC (stereo not drawn); test = HPLC; system = human CYP2C19 intermediate metabolizers, plasma; conditions = oral, 40 mg/day, day 1, esomeprazole; Tmax = 4 ± 2.83 h
Structure (SMILES) = COc1ccnc(C[S+]([O-])c2nc3ccc(OC(F)F)cc3[nH]2)c1OC (stereo not drawn); system = human, obese children with GERD, plasma; conditions = oral, 1.2 mg/kg lean body weight, age 12-17 y, single dose; how to read = median; Tmax = 2.5 h
Structure (SMILES) = CC#CC(=O)NCCCC(=O)c1nc(-c2ccc(C(=O)Nc3ccccn3)cc2)c2c(N)nccn12; system = human, healthy control, plasma; conditions = oral, 50 mg acalabrutinib, single, median; Tmax = 1.5 h
Structure (SMILES) = N[C@]1(C(=O)O)[C@H]2[C@@H](C[C@@H]1F)[C@@H]2C(=O)O; system = human, both sexes, fed, plasma; conditions = oral, 40 mg, day 14, multiple ascending dose; Tmax = 3.5 h
Structure (SMILES) = CCn1c(=O)c2c(nc(/C=C/c3ccc(OC)c(OC)c3)n2C)n(CC)c1=O; system = healthy human, plasma; conditions = oral, 40 mg single dose, median, added: rifampin 600 mg/day steady state; Tmax = 1.9 h
Structure (SMILES) = CNC(=O)c1c(C)oc2cc(Oc3ncnc4cc(OC)c(OC)cc34)ccc12; system = human, plasma; conditions = oral, 5 mg, fasted, added: rabeprazole 40 mg; Tmax = 3.5 h
Structure (SMILES) = CS(=O)(=O)n1cc2c(n1)CN([C@H]1CO[C@H](c3cc(F)ccc3F)[C@@H](N)C1)C2; system = healthy male human, plasma; conditions = oral, 10 mg once weekly, day 1, fasted, median; Tmax = 3 h
Structure (SMILES) = COc1ccc2nc([S@@+]([O-])Cc3ncc(C)c(OC)c3C)[nH]c2c1; test = HPLC; system = human CYP2C19 rapid metabolizers, plasma; conditions = oral, 40 mg/day, day 5, pantoprazole; Tmax = 1.13 ± 0.85 h
Structure (SMILES) = C#C[C@]1(CO)O[C@@H](n2cnc3c(N)nc(F)nc32)C[C@@H]1O; system = human, plasma; conditions = oral, 2.25 mg once daily, median, added: doravirine 100 mg once daily; Tmax = 0.5 h
Structure (SMILES) = O=C(Cc1cccc(OC(F)(F)F)c1)Nc1ccc(CCCCc2nnc(NC(=O)Cc3ccccn3)s2)nn1; system = human; conditions = oral, 1000 mg twice daily, fed, steady state, cycle 1 day 15; Tmax = 6.08 h
Structure (SMILES) = CCS(=O)(=O)N1CC(CC#N)(n2cc(-c3ncnc4[nH]ccc34)cn2)C1; system = healthy Chinese human, plasma; conditions = oral, single dose, 2 to 10 mg; Tmax = 0.75 to 1 h
Structure (SMILES) = CC(C)n1nc(-c2ccc3oc(N)nc3c2)c2c(N)ncnc21; system = human, plasma; conditions = oral, 20 mg weekly, cycle 1 day 1, median, dose escalation; Tmax = 0.5 h
Structure (SMILES) = NC(=O)N1CCC(CC(=O)N2CCC([C@H]3c4ncc(Br)cc4CCc4cc(Cl)cc(Br)c43)CC2)CC1; system = human, plasma; conditions = oral, 200 mg twice daily, cycle 1 day 15, multiple dose, median, added: gemcitabine 600 mg/m2; Tmax = 6 h
Structure (SMILES) = C=C(C)[C@@H]1CC[C@]2(NCCN3CCS(=O)(=O)CC3)CC[C@]3(C)[C@H](CC[C@@H]4[C@@]5(C)CC=C(C6=CC[C@@](CF)(C(=O)O)CC6)C(C)(C)[C@@H]5CC[C@]43C)[C@@H]12; system = human, HIV-1 treatment-naive, plasma; conditions = oral, 10 mg once daily, day 8; Tmax = 4.02 h
Structure (SMILES) = Cn1cnc2c(F)c(Nc3ccc(Br)cc3Cl)c(C(=O)NOCCO)cc21; system = human cancer patients, plasma; conditions = oral, 75 mg, cycle 1 day 1; Tmax = 1.64 ± 0.73 h
Structure (SMILES) = COCCCCn1c(C(=O)N(CC(C)C)[C@@H]2CNC[C@H](C(=O)N3CCOCC3)C2)nc2ccccc21; system = non-elderly human, plasma; conditions = oral, 80 mg once daily, day 1; Tmax = 2 h
Structure (SMILES) = CC(C)NC[C@@H](C(=O)N1CCN(c2ncnc3c2[C@H](C)C[C@H]3O)CC1)c1ccc(Cl)cc1; system = human, Moderate hepatic function (Child-Pugh), plasma; conditions = oral, 100 mg single dose, median; Tmax = 0.5 h
Structure (SMILES) = CN1C(=O)[C@@H](NC(=O)c2nnc(Cc3ccccc3)[nH]2)COc2ccccc21; system = human male, plasma; conditions = oral, 60 mg twice daily, day 14; Tmax = 1.5 h
Structure (SMILES) = CC(C)[C@H](N)C(=O)NCCCS(=O)(=O)O; system = human, plasma; conditions = oral, 340 mg capsule, day 14, fasted, multiple dosing; Tmax = 0.629 ± 0.229 h
Structure (SMILES) = C[C@@H](Nc1cc(F)cc(F)c1)c1cc(C(=O)N(C)C)cc2c(=O)cc(N3CCOCC3)oc12; system = human, plasma; conditions = oral, single dose, median; Tmax = 1.2 to 4.1 h
Structure (SMILES) = Cc1ccc(NC(=O)c2ccc(CN3CCN(C)CC3)cc2)cc1Nc1nccc(-c2cncc(-c3oncc3C)c2)n1; system = older healthy human adults, plasma; conditions = oral, 125 mg single dose, fed, mean; Tmax = 3.34 h
Structure (SMILES) = O=C(O)CNC(=O)c1c(O)c2ccccc2n(OCC2CC2)c1=O; system = human; conditions = oral, 150 mg single dose, fasted; Tmax = 2 h
Structure (SMILES) = C=CC[C@@H]1/C=C(\C)C[C@H](C)C[C@H](OC)[C@H]2O[C@@](O)(C(=O)C(=O)N3CCCC[C@H]3C(=O)O[C@H](/C(C)=C/[C@@H]3CC[C@@H](O)[C@H](OC)C3)[C@H](C)[C@@H](O)CC1=O)[C@H](C)C[C@@H]2OC; system = healthy human subjects, whole blood; conditions = oral, 5 mg single dose, median, added: isavuconazole 200 mg once daily after loading; Tmax = 3 h
Structure (SMILES) = CC(C)c1nc(N(C)S(C)(=O)=O)nc(-c2ccc(F)cc2)c1/C=C/[C@@H](O)C[C@@H](O)CC(=O)O; system = human female, plasma; conditions = oral, 20 mg, given alone; Tmax = 2.8 h
Structure (SMILES) = CC(C)(C)OC[C@@H]1C(=O)NCCN1C(=O)C[C@H](N)Cc1cc(F)c(F)cc1F; system = human; conditions = 10 mg once daily, day 10, steady state, median; Tmax = 5 h
Structure (SMILES) = CNCc1ccc(-c2[nH]c3cc(F)cc4c3c2CCNC4=O)cc1; system = human patients, plasma; conditions = oral, 360 mg twice daily, day 15, steady state, median; Tmax = 3.3 h
Structure (SMILES) = CC(=O)N[C@H]1CC[C@H](NC(=O)CN2CCN(c3nncc(-c4ccc(C)cc4)n3)CC2)CC1; system = human, plasma; conditions = oral, 120 mg once daily, day 7, fed, median; Tmax = 1.5 h
Structure (SMILES) = CON(C)C(=O)N1N=C(c2cc(F)ccc2F)S[C@@]1(CCCN)c1ccccc1; system = human; conditions = intravenous, 1.5 mg/m^2, cycle 1 day 3, median; Tmax = 1 h
Structure (SMILES) = N#CCNC(=O)c1ccc(-c2ccnc(Nc3ccc(N4CCOCC4=O)cc3)n2)cc1; system = human, plasma; conditions = oral, 100 mg momelotinib once daily, cycle 1 day 15, median, added: trametinib 1.0 mg once daily; Tmax = 1.9 h
Structure (SMILES) = O=c1[nH]c(=O)c(Cc2cccc(C(F)(F)F)c2)c([C@H]2CC[C@H](c3ccccc3)CC2)[nH]1; system = human, fasted, plasma; conditions = oral, 1500 mg single dose, median; Tmax = 4 h
Structure (SMILES) = COc1cccc(-c2ccc(NC(=O)C3=C(C(=O)O)CCC3)c(F)c2)c1; system = healthy male humans, plasma; conditions = oral, 30 mg once daily, day 13, median; Tmax = 3 h
Structure (SMILES) = CC(=O)c1c(C)c2cnc(Nc3ccc(N4CCNCC4)cn3)nc2n(C2CCCC2)c1=O; system = human; conditions = oral, 75 mg/m^2 repeated doses, day 21; Tmax = 4.9 ± 2 h
Structure (SMILES) = C[C@H](N)C(=O)N1C[C@H](CCCB(O)O)[C@](N)(C(=O)O)C1; system = human, moderate renal impairment, plasma; conditions = oral, 50 mg, cycle 1 day 1, added: pembrolizumab; Tmax = 5.9 h
Structure (SMILES) = CCn1c(C(=O)c2cc(C)cc(C#N)c2)c(C(C)C)c(=O)[nH]c1=O; system = healthy humans, plasma; conditions = oral, 600 mg once daily, 7 days, median; Tmax = 2 h
Structure (SMILES) = CNc1nc(Nc2ccc(-n3cnc(C)n3)c(OC)c2)nc2c1CC[C@H]2c1ccc(F)cc1; system = elderly humans, both sexes, plasma; conditions = oral, 900 mg single dose; Tmax = 5 h
Structure (SMILES) = C#Cc1cccc(Nc2ncnc3cc(OCCOC)c(OCCOC)cc23)c1; system = human, plasma; conditions = oral, day 29, median, added: dovitinib; Tmax = 3 h
Structure (SMILES) = Cc1ccsc1C(=O)Nc1cc(CN2CCN(C(=O)CO)CC2)ccc1/C=C/c1n[nH]c2ccccc12; system = human patients, plasma; conditions = oral, 50 mg/day, day 1; Tmax = 1.86 ± 0.73 h
Structure (SMILES) = Cc1nc(Nc2ncc(C(=O)Nc3c(C)cccc3Cl)s2)cc(N2CCN(CCO)CC2)n1; system = human, plasma; conditions = oral, 100 mg, median, range 1.0 to 16 h, added: omeprazole; Tmax = 1.9 h
Structure (SMILES) = O=C([O-])CCCCCCCNC(=O)c1ccccc1O.[Na+]; system = human, moderate hepatic impairment, plasma; conditions = oral, once daily, day 10, after dose 10, median; Tmax = 0.48 h
